Assay results pooled from the literature.
Each line is one published result; not all experiments were run side by side. Numbers after ± are the reported error.

Structure (SMILES) = CCCC[C@H](NC(=O)CNC(=O)CNC(=O)c1ccc(NN)nc1)C(=O)N[C@H]1CC(=O)NCCCC[C@@H](C(N)=O)NC(=O)[C@H](Cc2c[nH]c3ccccc23)NC(=O)[C@H](CCCNC(=N)N)NC(=O)[C@@H](Cc2ccccc2)NC(=O)[C@H](Cc2c[nH]cn2)NC1=O [technetium-99m labelled]; system = C57 mouse, B16/F1 melanoma-bearing; conditions = intravenous, 4 h; how to read = relative to: tumour over muscle; quantity = tissue uptake ratio; value = 331
Structure (SMILES) = CN[C@](C)(C[18F])C(=O)O; tested on = A549 tumour model; system = host not given, bone; conditions = 30 min, tumour-bearing; quantity = tracer uptake; value = 2.1 %ID/g
Structure (SMILES) = CC(C)[C@@H]1NC(=O)[C@H](C)OC(=O)[C@@H](C(C)C)NC(=O)[C@@H](C(C)C)OC(=O)[C@H](C(C)C)NC(=O)[C@H](C)OC(=O)[C@@H](C(C)C)NC(=O)[C@@H](C(C)C)OC(=O)[C@H](C(C)C)NC(=O)[C@H](C)OC(=O)[C@@H](C(C)C)NC(=O)[C@H](C)OC1=O; tested on = U-87 MG; test = cell growth, SRB; how to read = relative to: IC50 in HA over IC50 in U-87 MG; quantity = selectivity ratio; value = 18
Structure (SMILES) = O=C(O)CCC(NP(=O)(O)OCCC[C@@H](NC(=O)CCC(NC(=O)CCCCCNC(=O)c1ccc([18F])cc1)C(=O)O)C(=O)O)C(=O)O (stereo partly drawn); tested on = CWR22Rv1; conditions = 2 h; quantity = internalized fraction; value = 84.2%
Structure (SMILES) = C[C@H]1C(OCCCCCCC[P+](c2ccccc2)(c2ccccc2)c2ccccc2)O[C@@H]2O[C@@]3(C)CCC4[C@H](C)CCC1[C@]42OO3 (stereo partly drawn); tested on = T24; test = MTT; conditions = 72 h; how to read = relative to: HUVEC IC50 over T24 IC50; quantity = selectivity index; value = 2.67
Structure (SMILES) = COC(=O)[C@H](CC(C)C)NC(=O)[C@@H]1CCCN1C(=O)[C@@H](NC(=O)[C@H](CCC(=O)C=[N+]=[N-])NC(=O)OCc1ccccc1)C(C)C; tested on = YAC128 mouse medium spiny neurons; test = TUNEL; conditions = 50 µM, 24 h after NMDA, baseline subtracted, added: NMDA 500 µM for 10 min; quantity = apoptotic cells; value = 13.1 ± 3.4%
Structure (SMILES) = CC[C@H](C)[C@H](NC(=O)[C@H](CC(C)C)NC(=O)[C@@H](NC(=O)[C@@H](NC(=O)[C@H](CCSC)NC(C)=O)[C@@H](C)CC)[C@@H](C)CC)C(=O)N[C@H](C(=O)N[C@@H](CO)C(=O)N[C@@H](Cc1ccccc1)C(=O)N1CCC[C@H]1C(=O)N[C@@H](CCCCN)C(=O)N[C@@H](Cc1c[nH]cn1)C(=O)N[C@@H](CCCCN)C(=O)N[C@@H](CC(=O)O)C(=O)N[C@@H](Cc1c[nH]c2ccccc12)C(=O)N[C@@H](CCCCN)C(=O)N[C@H](C(=O)N[C@H](C(=O)N[C@@H](CC(C)C)C(=O)N[C@H](C(=O)N[C@@H](CCCCN)C(N)=O)C(C)C)[C@@H](C)CC)C(C)C)[C@@H](C)CC; tested on = mouse BMDMs, Irf5-/- and wild type; conditions = dose not given, 24 h, added: LPS; quantity = TGF-β production; value = no effect
Structure (SMILES) = CC12OOC(C)(OO1)C2CCC(=O)NCCCNc1ccnc2cc(Cl)ccc12 (stereo not drawn); tested on = HL-60; test = cell growth or viability, resazurin; conditions = 10 µM, 48 h; quantity = inhibition; value = 67.4%
Structure (SMILES) = CCn1nc(Cl)c2c1-c1cnc(N)c(c1)O[C@H](C)c1cc(F)ccc1-c1nn(C)cc1C2; tested on = Ba/F3; how to read = relative to: TRKB phosphorylation over ALK viability; quantity = selectivity ratio; value = ≥ 22 fold
Structure (SMILES) = C[C@H]1C(OCCCCCCCC[P+](c2ccccc2)(c2ccccc2)c2ccccc2)O[C@@H]2O[C@@]3(C)CCC4[C@H](C)CCC1[C@]42OO3 (stereo partly drawn); tested on = T24; test = PI flow cytometry; conditions = 100 nM, 48 h; quantity = G0/G1 phase cells; value = 79.9%
Structure (SMILES) = CC[C@H](C)[C@H](NC(=O)CNC(=O)[C@H](CC(C)C)NC(=O)CNC(=O)[C@H](CCCCN)NC(=O)[C@H](CCC(=O)O)NC(=O)[C@H](CCCCN)NC(=O)[C@@H](NC(=O)[C@H](Cc1ccccc1)NC(=O)[C@H](CC(=O)O)NC(=O)[C@H](CCCCN)NC(=O)[C@H](C)NC(=O)[C@H](CCCCN)NC(=O)[C@H](CC(N)=O)NC(=O)[C@H](CC(C)C)NC(=O)[C@H](Cc1c[nH]c2ccccc12)NC(=O)[C@H](CC(=O)O)NC(=O)[C@H](CCCCN)NC(=O)[C@@H](NC(=O)CNC(=O)[C@H](C)N)[C@@H](C)O)[C@@H](C)CC)C(=O)N[C@@H](CC(C)C)C(=O)N[C@@H](CO)C(=O)N[C@@H](C)C(=O)N[C@@H](C)C(=O)N[C@@H](C)C(=O)N[C@@H](CC(N)=O)C(=O)N[C@@H](C)C(=O)N[C@@H](C)C(=O)N[C@H](C(=O)N[C@@H](CC(N)=O)C(=O)O)[C@@H](C)CC; tested on = mouse DRG neurons; conditions = 10 µM, 90 s; quantity = intracellular calcium increase; value = inactive
Structure (SMILES) = CC(=O)Oc1ccc(/C=C/C(=O)Nc2nc(=O)n([C@@H]3O[C@H](C)[C@@H](OC(C)=O)[C@H]3OC(C)=O)cc2F)cc1; tested on = ASPC1; test = cell viability, MTT; how to read = relative to: NHDF fibroblasts over ASPC1; quantity = selectivity index; value = 1.69
Structure (SMILES) = CCCc1cc(OC)c(OC)c(OC)c1OC; tested on = HCT-116; test = cell growth or viability; conditions = 72 h; quantity = GI50; value = > 250 µM
Structure (SMILES) = CC[C@@]1(O)C(=O)OCc2c1cc1n(c2=O)Cc2cc3cc(OC(=O)CCCC(=O)NCC(=O)N[C@@H](Cc4ccccc4)C(=O)N[C@@H](Cc4ccccc4)C(=O)N[C@@H](Cc4ccc(OP(=O)(O)O)cc4)C(=O)NCCSSCCNC(=O)CCC(=O)N[C@@H](CCC(=O)O)C(=O)N[C@@H](CCCNC(=N)N)C(=O)NCC(=O)N[C@@H](CC(=O)O)C(=O)O)ccc3nc2-1; tested on = HepG2; test = annexin V/PI flow cytometry; conditions = 200 nM, 48 h; quantity = early apoptotic cells; value = 13.6%
Structure (SMILES) = CC(C)[C@H](NC(=O)c1ccc(CNc2nc3c(c(=O)[nH]2)CCC3)cc1)C(=O)NC1COC1; tested on = mouse osteoclast precursors; conditions = 10 µM, 5 to 7 d, added: M-CSF and RANKL; how to read = relative to: control; quantity = osteoclast differentiation; value = 22%
Structure (SMILES) = COC1CC(=O)N(C)C=CCCCC(=O)N(C)C(C(C)C)C(=O)N(C)C(CC(C)C)C(=O)OC(C(C)C)CC(C)C1 (stereo not drawn); tested on = HCT-116; test = RNA sequencing, item: integrin signalling; conditions = 20 µM, 12 h; how to read = direction not given; quantity = pathway activation z-score; value = 2
Structure (SMILES) = CC[C@H](C)[C@H](NC(=O)[C@@H](NC(=O)[C@@H](N)C(C)C)C(C)C)C(=O)NCC(N)=O; tested on = PC-12; test = Aβ42-induced neurotoxicity, inhibitor, MTT; conditions = concentration not given, 6 h, 37 °C, peptide to Aβ42 1:2, added: Aβ42 2 µM; how to read = relative to: untreated cells; quantity = viability; value = 88.5%
Structure (SMILES) = CCc1ccc(C(=O)N[C@@H](CO)C(=O)N[C@H](C(=O)N2CCC[C@H]2C(=O)N[C@@H](CC(N)=O)C(=O)NCC(=O)N[C@@H](CC(C)C)C(=O)O)[C@@H](C)OP(=O)(O)O)cc1; tested on = HeLa-H2B-GFP, QQ transfected; conditions = 30 µM; quantity = aberrant prometaphase/metaphase cells; value = 48%
Structure (SMILES) = CN1/C(=C/C=C2\CCCC(/C=C/C3=[N+](C)c4ccccc4C3(C)C)=C2SCCC(=O)N[C@@H](Cc2ccccc2)C(=O)N[C@@H](Cc2ccccc2)C(=O)N[C@@H](CCCCNC(=O)CCC(=O)O)C(=O)N[C@@H](CCCCNC(=O)CCCC[C@@H]2SC[C@@H]3NC(=O)N[C@@H]32)C(=O)O)C(C)(C)c2ccccc21; tested on = 4T1; test = CCK-8; conditions = 20 µM, 4 h then 24 h, added: 808 nm laser 1 W/cm2 5 min; how to read = relative to: untreated; quantity = viability; value = 22.1%
Structure (SMILES) = O=C1/C(=C/c2ccc3c(c2)OCCO3)SC(=S)N1[C@@H]1O[C@H](CO)[C@@H](O)[C@H](O)[C@H]1O; tested on = HepG2; test = item: Casp-3; conditions = IC50, 48 h; how to read = relative to: untreated; quantity = mRNA fold change; value = 4.16 fold
Structure (SMILES) = CC[C@H]1OC(=O)[C@H](C(C)C)NC(=O)[C@H](C)OC(=O)[C@@H](C(C)C)NC(=O)[C@@H](C(C)C)OC(=O)[C@H](C(C)C)NC(=O)[C@H](C)OC(=O)[C@@H](C(C)C)NC(=O)[C@@H](C(C)C)OC(=O)[C@H](C(C)C)NC(=O)[C@H](C)OC(=O)[C@@H](C(C)C)NC1=O; tested on = U-87 MG; test = PI staining flow cytometry; conditions = 0.8 µM, 12 h; quantity = S phase cells; value = 9.12%
Structure (SMILES) = CC1(C(=O)O)CCCC2(C)C1CCC1(C)c3cocc3CCC12 (stereo not drawn); tested on = VCaP; test = inhibitor, qRT-PCR, item: PSA, FKBP5, TMPRSS2; conditions = 10 µM, 16 h, androgen-induced transcripts, added: R1881 1 nM; quantity = mRNA level; value = no effect
Structure (SMILES) = CC=C(C)C(=O)OC1C(O)C2OC(COC(=O)CCCCCCCCCC(CCCCC)OC3OC(C)C(OC(C)=O)C(O)C3O2)C1OC(=O)C=Cc1ccccc1 (stereo not drawn); tested on = U-937; how to read = relative to: IC50 MCF-10A over IC50 U-937; quantity = selectivity index; value = 2.77
Structure (SMILES) = CC/C=C\C/C=C\C/C=C\C/C=C\C/C=C\C/C=C\CCC(=O)Nc1ccn(C2OC(CO)C(O)C2(F)F)c(=O)n1 (stereo not drawn); tested on = M14; test = NCI60 screen; quantity = CC50; value = 34.8 µM

Some of these lines once more:
Structure (SMILES) = COC1CC(=O)N(C)C=CCCCC(=O)N(C)C(C(C)C)C(=O)N(C)C(CC(C)C)C(=O)OC(C(C)C)CC(C)C1 (stereo not drawn); tested on = HCT-116; test = RNA sequencing, item: integrin signalling; conditions = 20 µM, 12 h; how to read = direction not given; quantity = pathway activation z-score; value = 2
Structure (SMILES) = CC[C@H](C)[C@H](NC(=O)[C@@H](NC(=O)[C@@H](N)C(C)C)C(C)C)C(=O)NCC(N)=O; tested on = PC-12; test = Aβ42-induced neurotoxicity, inhibitor, MTT; conditions = concentration not given, 6 h, 37 °C, peptide to Aβ42 1:2, added: Aβ42 2 µM; how to read = relative to: untreated cells; quantity = viability; value = 88.5%
Structure (SMILES) = CCc1ccc(C(=O)N[C@@H](CO)C(=O)N[C@H](C(=O)N2CCC[C@H]2C(=O)N[C@@H](CC(N)=O)C(=O)NCC(=O)N[C@@H](CC(C)C)C(=O)O)[C@@H](C)OP(=O)(O)O)cc1; tested on = HeLa-H2B-GFP, QQ transfected; conditions = 30 µM; quantity = aberrant prometaphase/metaphase cells; value = 48%
Structure (SMILES) = CN1/C(=C/C=C2\CCCC(/C=C/C3=[N+](C)c4ccccc4C3(C)C)=C2SCCC(=O)N[C@@H](Cc2ccccc2)C(=O)N[C@@H](Cc2ccccc2)C(=O)N[C@@H](CCCCNC(=O)CCC(=O)O)C(=O)N[C@@H](CCCCNC(=O)CCCC[C@@H]2SC[C@@H]3NC(=O)N[C@@H]32)C(=O)O)C(C)(C)c2ccccc21; tested on = 4T1; test = CCK-8; conditions = 20 µM, 4 h then 24 h, added: 808 nm laser 1 W/cm2 5 min; how to read = relative to: untreated; quantity = viability; value = 22.1%
